Experimental data collected from several papers.
Each numbered part is a random draw from the data of one study; scales do not carry over between parts.
Sequence of UniProt Q9UM73 (whole entry, unmodified, looked up): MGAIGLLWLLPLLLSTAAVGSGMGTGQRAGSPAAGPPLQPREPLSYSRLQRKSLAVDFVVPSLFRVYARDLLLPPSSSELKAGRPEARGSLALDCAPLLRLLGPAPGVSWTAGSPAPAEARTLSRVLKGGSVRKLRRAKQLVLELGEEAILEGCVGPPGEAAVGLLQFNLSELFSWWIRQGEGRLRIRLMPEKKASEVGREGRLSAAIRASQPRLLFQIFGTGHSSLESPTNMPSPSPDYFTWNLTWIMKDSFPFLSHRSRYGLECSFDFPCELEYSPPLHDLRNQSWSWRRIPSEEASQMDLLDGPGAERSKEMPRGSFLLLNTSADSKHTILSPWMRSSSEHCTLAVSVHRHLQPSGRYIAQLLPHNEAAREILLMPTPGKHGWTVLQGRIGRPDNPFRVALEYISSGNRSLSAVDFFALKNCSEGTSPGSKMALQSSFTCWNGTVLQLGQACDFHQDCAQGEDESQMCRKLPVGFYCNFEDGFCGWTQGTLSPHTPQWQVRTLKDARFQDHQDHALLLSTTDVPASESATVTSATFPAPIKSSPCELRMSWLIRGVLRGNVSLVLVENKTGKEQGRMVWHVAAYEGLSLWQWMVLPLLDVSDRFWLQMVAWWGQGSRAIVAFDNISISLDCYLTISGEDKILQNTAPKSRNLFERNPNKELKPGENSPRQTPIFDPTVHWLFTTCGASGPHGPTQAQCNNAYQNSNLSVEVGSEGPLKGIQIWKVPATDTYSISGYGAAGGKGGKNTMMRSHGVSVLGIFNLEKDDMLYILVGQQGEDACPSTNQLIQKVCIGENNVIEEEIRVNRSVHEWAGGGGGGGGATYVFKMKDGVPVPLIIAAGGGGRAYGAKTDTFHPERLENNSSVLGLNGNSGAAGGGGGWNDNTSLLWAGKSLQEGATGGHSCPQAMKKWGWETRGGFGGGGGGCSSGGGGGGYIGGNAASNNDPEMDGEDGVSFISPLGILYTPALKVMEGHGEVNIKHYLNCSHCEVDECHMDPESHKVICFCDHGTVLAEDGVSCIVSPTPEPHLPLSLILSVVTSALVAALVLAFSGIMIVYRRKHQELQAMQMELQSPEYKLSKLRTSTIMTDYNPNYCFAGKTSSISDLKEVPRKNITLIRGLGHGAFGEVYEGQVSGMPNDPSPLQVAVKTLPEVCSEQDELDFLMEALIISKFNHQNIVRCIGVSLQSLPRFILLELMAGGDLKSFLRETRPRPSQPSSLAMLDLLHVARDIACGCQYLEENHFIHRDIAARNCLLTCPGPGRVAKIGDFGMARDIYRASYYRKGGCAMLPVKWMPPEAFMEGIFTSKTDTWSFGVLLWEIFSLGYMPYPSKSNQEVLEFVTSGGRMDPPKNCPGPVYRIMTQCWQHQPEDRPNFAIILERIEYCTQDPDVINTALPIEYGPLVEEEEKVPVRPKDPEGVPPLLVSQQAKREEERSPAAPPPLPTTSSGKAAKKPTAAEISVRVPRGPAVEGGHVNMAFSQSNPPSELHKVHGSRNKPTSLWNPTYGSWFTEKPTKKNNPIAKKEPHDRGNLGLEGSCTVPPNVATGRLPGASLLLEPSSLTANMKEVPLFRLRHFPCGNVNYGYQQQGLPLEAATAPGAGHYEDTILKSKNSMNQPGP
Sequence of UniProt P42336 (whole entry, unmodified, looked up): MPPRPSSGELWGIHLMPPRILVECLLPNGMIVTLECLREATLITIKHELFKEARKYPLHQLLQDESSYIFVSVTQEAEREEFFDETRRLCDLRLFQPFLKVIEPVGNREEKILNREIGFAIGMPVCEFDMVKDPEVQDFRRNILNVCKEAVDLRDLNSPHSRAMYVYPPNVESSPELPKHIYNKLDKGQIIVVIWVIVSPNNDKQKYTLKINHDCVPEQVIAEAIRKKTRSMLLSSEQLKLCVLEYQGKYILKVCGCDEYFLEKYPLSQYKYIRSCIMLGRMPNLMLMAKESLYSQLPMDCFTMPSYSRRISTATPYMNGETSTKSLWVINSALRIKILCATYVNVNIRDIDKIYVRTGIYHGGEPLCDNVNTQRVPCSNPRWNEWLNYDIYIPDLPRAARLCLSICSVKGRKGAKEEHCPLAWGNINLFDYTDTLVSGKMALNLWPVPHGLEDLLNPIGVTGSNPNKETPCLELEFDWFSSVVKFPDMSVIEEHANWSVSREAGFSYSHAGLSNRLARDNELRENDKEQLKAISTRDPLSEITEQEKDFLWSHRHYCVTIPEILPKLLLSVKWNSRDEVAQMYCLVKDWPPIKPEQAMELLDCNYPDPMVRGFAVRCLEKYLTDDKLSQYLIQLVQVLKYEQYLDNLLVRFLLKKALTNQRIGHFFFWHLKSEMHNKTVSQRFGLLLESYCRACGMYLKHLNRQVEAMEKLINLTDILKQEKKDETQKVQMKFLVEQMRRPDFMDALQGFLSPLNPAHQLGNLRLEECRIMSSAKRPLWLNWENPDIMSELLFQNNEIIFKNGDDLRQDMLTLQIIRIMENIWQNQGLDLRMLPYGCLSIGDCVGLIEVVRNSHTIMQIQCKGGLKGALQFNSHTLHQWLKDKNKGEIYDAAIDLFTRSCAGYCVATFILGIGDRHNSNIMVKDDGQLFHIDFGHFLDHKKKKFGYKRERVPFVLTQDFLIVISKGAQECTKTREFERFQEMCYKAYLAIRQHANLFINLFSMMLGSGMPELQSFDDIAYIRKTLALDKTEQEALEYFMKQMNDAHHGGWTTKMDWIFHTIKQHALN
Sequence of UniProt P53355 (whole entry, looked up): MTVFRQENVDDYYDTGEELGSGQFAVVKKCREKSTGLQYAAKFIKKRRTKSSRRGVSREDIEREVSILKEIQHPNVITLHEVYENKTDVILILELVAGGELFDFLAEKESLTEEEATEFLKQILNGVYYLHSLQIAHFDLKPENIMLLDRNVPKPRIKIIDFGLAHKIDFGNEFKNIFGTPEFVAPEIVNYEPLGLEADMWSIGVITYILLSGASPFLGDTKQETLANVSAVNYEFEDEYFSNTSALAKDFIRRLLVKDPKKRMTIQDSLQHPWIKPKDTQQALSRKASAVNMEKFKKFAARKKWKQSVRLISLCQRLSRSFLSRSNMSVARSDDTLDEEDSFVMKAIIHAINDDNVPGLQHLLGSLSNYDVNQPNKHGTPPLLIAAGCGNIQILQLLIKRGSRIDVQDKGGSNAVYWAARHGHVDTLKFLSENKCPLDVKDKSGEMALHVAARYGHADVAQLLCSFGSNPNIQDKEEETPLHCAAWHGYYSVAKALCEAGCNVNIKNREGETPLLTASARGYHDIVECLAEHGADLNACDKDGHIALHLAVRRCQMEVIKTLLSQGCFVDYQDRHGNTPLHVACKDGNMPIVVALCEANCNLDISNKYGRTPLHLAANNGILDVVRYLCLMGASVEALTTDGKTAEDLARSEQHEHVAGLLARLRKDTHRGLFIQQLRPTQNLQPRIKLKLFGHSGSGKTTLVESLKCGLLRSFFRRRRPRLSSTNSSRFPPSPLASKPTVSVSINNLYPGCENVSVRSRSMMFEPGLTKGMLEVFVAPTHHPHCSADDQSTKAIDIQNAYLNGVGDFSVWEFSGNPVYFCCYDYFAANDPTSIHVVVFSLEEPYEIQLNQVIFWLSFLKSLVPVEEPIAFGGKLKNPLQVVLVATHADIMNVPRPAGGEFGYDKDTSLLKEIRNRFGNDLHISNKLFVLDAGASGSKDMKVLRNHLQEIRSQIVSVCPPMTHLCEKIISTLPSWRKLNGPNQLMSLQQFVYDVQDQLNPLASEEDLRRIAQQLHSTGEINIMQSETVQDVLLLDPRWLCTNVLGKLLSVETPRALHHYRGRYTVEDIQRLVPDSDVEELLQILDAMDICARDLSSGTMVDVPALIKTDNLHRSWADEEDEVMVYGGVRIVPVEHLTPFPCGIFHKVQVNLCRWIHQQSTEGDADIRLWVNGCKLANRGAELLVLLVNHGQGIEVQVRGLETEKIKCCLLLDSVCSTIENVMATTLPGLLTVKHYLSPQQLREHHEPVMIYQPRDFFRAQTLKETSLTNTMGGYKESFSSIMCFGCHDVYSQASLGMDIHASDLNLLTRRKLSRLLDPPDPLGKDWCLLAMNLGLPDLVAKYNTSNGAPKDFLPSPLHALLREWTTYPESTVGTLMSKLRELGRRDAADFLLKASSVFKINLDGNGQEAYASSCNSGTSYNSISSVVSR
Sequence of UniProt Q16539 (whole entry, looked up): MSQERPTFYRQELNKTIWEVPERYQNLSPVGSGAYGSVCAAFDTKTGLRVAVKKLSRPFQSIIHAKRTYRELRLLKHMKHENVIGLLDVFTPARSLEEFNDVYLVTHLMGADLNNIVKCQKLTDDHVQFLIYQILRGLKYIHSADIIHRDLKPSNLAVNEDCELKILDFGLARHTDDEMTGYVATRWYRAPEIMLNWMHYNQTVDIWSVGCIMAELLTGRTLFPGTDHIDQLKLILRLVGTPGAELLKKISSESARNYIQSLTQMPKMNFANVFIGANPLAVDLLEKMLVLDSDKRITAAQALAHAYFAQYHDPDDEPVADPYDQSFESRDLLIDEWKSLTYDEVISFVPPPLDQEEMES
Sequence of UniProt P51955 (whole entry, looked up): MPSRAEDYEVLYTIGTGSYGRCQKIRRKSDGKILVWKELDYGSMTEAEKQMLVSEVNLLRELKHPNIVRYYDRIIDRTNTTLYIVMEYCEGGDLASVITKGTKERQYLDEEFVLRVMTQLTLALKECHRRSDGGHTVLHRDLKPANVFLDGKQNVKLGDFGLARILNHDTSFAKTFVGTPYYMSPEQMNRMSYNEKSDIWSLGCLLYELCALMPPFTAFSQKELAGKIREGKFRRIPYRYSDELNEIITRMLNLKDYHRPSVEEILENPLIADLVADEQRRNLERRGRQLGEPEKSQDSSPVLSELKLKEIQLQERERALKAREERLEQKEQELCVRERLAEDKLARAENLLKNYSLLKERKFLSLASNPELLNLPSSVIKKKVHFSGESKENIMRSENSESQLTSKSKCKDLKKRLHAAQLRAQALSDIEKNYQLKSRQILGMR

Sample 1
Compound: O=C(Nc1cnn(-c2csc(C(=O)NC3COC3)c2)c1)Nc1ccccc1Cl
Read-out: enzyme activity
Tested at: 5 µM
Baseline: untreated control
Endpoint: remaining activity
Death-associated protein kinase 1 (DAPK1, Homo sapiens, UniProt P53355): 98.6%
Casein kinase I isoform alpha (CSNK1A1, Homo sapiens, UniProt P48729): 93.3%
ALK tyrosine kinase receptor (ALK, Homo sapiens, UniProt Q9UM73): 99.8%
Tyrosine-protein kinase Fyn (FYN, Homo sapiens, UniProt P06241): 91.5%
Ribosomal protein S6 kinase beta-2 (RPS6KB2, Homo sapiens, UniProt Q9UBS0): 94%
Mitogen-activated protein kinase 14 (MAPK14, Homo sapiens, UniProt Q16539): 141%
Protein-tyrosine kinase 6 (PTK6, Homo sapiens, UniProt Q13882): 101%
Interleukin-1 receptor-associated kinase 4 (IRAK4, Homo sapiens, UniProt Q9NWZ3): 88.1%
Serine/threonine-protein kinase Sgk1 (SGK1, Homo sapiens, UniProt O00141): 93%
Tyrosine-protein kinase JAK1 (JAK1, Homo sapiens, UniProt P23458): 94.4%
Protein kinase C beta type, isoform beta-II (PRKCB, Homo sapiens, UniProt P05771): 102%

Sample 2
Target: Dual specificity protein kinase TTK (TTK, Homo sapiens, UniProt P33981)
Read-out: enzyme activity
Action: inhibitor
Tested at: 0.5 µM
Baseline: control
Endpoint: remaining activity
Residues (P33981 1-857): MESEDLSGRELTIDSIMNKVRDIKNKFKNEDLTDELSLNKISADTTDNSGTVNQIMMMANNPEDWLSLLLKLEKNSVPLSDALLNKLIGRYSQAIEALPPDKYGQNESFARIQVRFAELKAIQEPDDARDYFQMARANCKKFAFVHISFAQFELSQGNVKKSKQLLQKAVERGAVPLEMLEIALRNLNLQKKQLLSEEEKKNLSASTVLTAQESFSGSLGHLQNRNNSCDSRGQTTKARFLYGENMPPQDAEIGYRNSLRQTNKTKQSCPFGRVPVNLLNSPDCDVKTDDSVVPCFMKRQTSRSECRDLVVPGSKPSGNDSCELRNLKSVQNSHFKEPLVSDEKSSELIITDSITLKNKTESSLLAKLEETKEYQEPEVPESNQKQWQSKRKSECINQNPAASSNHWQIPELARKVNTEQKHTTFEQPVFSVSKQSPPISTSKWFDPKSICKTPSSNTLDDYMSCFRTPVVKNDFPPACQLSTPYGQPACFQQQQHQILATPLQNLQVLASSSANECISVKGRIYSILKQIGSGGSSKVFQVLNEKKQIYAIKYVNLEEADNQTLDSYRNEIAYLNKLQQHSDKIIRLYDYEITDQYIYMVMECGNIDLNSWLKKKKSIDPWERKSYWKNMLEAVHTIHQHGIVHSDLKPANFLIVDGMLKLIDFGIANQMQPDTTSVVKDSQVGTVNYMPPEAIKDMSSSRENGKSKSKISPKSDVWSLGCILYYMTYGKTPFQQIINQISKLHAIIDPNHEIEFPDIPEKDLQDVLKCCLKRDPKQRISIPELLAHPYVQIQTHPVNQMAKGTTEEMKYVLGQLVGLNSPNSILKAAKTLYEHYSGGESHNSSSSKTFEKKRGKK
O=C1Nc2ccccc2/C1=C\c1c(Cl)[nH]c2ccccc12: 101%
CN(C)S(=O)(=O)c1ccc2c(c1)/C(=C/c1cc3c([nH]1)CCCC3)C(=O)N2: 89.7%
O=c1cc(N2CCOCC2)oc2c(-c3ccccc3)cccc12: 103%
O=C1NC(=O)c2c1c1c3ccccc3[nH]c1n1cncc21: 79%
COc1cccc(-c2cc(=O)c3ccccc3o2)c1N: 99%
COc1ccc2c(c1)c(C1=C(c3c[nH]c4ccccc34)C(=O)NC1=O)cn2CCCN(C)C: 89.9%
CCCNC(=O)Nc1ccc(Oc2ncnc3cc(OC)c(OC)cc23)cc1Cl: 88.6%
N#Cc1cnc2cnc(NCc3cccnc3)cc2c1Nc1ccc(F)c(Cl)c1: 99.1%
c1ccc2c(-c3ccncc3)c[nH]c2c1: 112%
O=C1NC(=O)c2c1c1c3ccccc3[nH]c1c1[nH]c3cc(Br)ccc3c21: 98.7%
c1ccc(-c2n[nH]c3c2oc2ccccc23)cc1: 95.7%
CN1CCN(c2ccc3nc(-c4c(N)c5c(F)cccc5[nH]c4=O)[nH]c3c2)CC1: 102%
O=C(c1cc2cc(O)ccc2[nH]1)c1cc2cc(O)ccc2[nH]1: 92.9%
O=C1Nc2ccc(Br)cc2/C1=C/c1cc2c([nH]1)CCCC2: 95.1%
Cc1ccc(S(=O)(=O)/C=C/C#N)cc1: 107%
O=C1Cc2c([nH]c3ccc(Br)cc23)-c2ccccc2N1: 80.9%
CCCCc1c(-c2ccc(OC)cc2)[nH]c2nccnc12: 87.9%
Cc1cc(Nc2cc(N3CCN(C)CC3)nc(Sc3ccc(NC(=O)C4CC4)cc3)n2)[nH]n1: 104%
COc1ccc(COc2ccc(Cc3cnc(N)nc3N)cc2OC)cc1: 105%

Sample 3
Species: mouse
Matrix: microsomes or S9
Tested at: 2 µM
Time: 0.5 h
Endpoint: remaining compound
CCc1cnc(NCCCn2ccnc2CC)nc1: 41.3%
CCOc1ccc(OCC)c(NC(=O)c2cc(S(=O)(=O)N3CCCCC3)c[nH]2)c1: 1.97%
Cc1ccc(C(C)(C)C)c(OCCOCCN2CC(C)OC(C)C2)c1 (centres unmarked): 0.0229%
CCOc1ccc(C(=O)N2CC(c3nnc(-c4ccncc4)o3)C3(CCOCC3)C2)cc1 (centres unmarked): 36.7%
Cc1cc(C(=O)COC(=O)c2ncc(Cl)c(Cl)c2Cl)c(C)n1-c1nccs1: 15.6%
CCC(C)Nc1[nH]c2cc(C)cc(C)c2c(=O)c1C(C)=O (centres unmarked): 0.126%
COc1cc(=O)[nH]cc1C(=O)N1CCN(c2nc(C)cs2)C(C)C1 (centres unmarked): 91.3%
Cc1ccc(C2Nc3ccc4ccccc4c3C3=C2CC(C)(C)CC3=O)o1 (centres unmarked): 4.19%
COc1cccc2c1OC1(CCN(Cc3ccccc3)CC1)N1N=C(c3ccc(C)o3)CC21 (centres unmarked): 0.897%
CCOc1cc(-c2ccccc2)nn1Cc1ccc2cccnc2c1: 0.723%
COc1cc(=O)[nH]cc1C(=O)N1CCNC(c2ccccc2)C1 (centres unmarked): 87.8%
COc1cccc(-c2c3c(cc(OC)c2OC)C(=O)N(c2cccc(C(=O)O)c2)C3)c1: 73.2%
CCOc1cc(-c2nnc3[nH]c(=O)n(C)c(=O)c3n2)ccc1OC(C)C: 65.3%
Cc1c(CNCC(c2cccs2)N(C)C)cc(C#N)n1C (centres unmarked): 0.0803%
Cc1ccc(Nc2cc(C)n3c(=O)[nH]nc3n2)cc1F: 45%
Cc1cc(NCCCc2nc(C(C)C)no2)nc(-c2ccc(S(C)(=O)=O)cc2)n1: < 1%

Sample 4
SMILES: CCOC(=O)c1cc2cc(-c3cc(C(=O)NCc4ccc(C(=O)O)cc4)nn3C)ccc2[nH]1
Read-out: cell-free assay
Technique: competition with immobilised ligand
Tested at: 0.1 µM
Endpoint: remaining binding
Serine/threonine-protein kinase Nek11 (NEK11, Homo sapiens, UniProt Q8NG66): 77%
Serine/threonine-protein kinase pim-3 (PIM3, Homo sapiens, UniProt Q86V86): 99%
Serine/threonine-protein kinase SIK3 (SIK3, Homo sapiens, UniProt Q9Y2K2): 100%
Serine/threonine-protein kinase VRK2 (VRK2, Homo sapiens, UniProt Q86Y07): 98%
Serine/threonine-protein kinase Chk2 (CHEK2, Homo sapiens, UniProt O96017): 100%
Serine/threonine-protein kinase Nek2 (NEK2, Homo sapiens, UniProt P51955): 99%
Hormonally up-regulated neu tumor-associated kinase (HUNK, Homo sapiens, UniProt P57058): 100%
Tyrosine-protein kinase Lck (LCK, Homo sapiens, UniProt P06239): 94%
Serine/threonine-protein kinase 33 (STK33, Homo sapiens, UniProt Q9BYT3): 100%
Epidermal growth factor receptor (EGFR, Homo sapiens, UniProt P00533, L858R/T790M): 100%
Phosphatidylinositol 4,5-bisphosphate 3-kinase catalytic subunit alpha isoform (PIK3CA, Homo sapiens, UniProt P42336, H1047Y): 77%
Mitogen-activated protein kinase kinase kinase kinase 3 (MAP4K3, Homo sapiens, UniProt Q8IVH8): 89%
Phosphatidylinositol 4,5-bisphosphate 3-kinase catalytic subunit alpha isoform (PIK3CA, Homo sapiens, UniProt P42336, E545A): 84%
Testis-specific serine/threonine-protein kinase 3 (TSSK3, Homo sapiens, UniProt Q96PN8): 91%
ALK tyrosine kinase receptor (ALK, Homo sapiens, UniProt Q9UM73, C1156Y): 82%
Serine/threonine-protein kinase PRP4 homolog (PRPF4B, Homo sapiens, UniProt Q13523): 89%
Ribosomal protein S6 kinase alpha-3, N-terminal kinase domain (RPS6KA3, Homo sapiens, UniProt P51812): 100%
Misshapen-like kinase 1 (MINK1, Homo sapiens, UniProt Q8N4C8): 94%
Cyclin-dependent kinase 4, with cyclin D1 (CDK4, Homo sapiens, UniProt P11802): 82%
